{"data": "Measured values from different studies", "note": "Parts stem from different laboratories: compare values within a part only.", "sequence of UniProt P48729 (whole entry, looked up)": "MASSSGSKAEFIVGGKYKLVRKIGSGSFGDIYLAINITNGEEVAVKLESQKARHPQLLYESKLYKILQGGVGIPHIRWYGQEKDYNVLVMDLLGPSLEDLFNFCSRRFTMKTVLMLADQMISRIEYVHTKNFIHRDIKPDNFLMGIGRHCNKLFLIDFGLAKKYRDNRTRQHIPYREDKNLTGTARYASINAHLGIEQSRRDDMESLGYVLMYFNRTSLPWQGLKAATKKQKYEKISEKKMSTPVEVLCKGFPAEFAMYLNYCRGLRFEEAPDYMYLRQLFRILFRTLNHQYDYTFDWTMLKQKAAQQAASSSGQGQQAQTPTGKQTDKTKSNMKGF", "sequence of UniProt O00750 (whole entry, looked up)": "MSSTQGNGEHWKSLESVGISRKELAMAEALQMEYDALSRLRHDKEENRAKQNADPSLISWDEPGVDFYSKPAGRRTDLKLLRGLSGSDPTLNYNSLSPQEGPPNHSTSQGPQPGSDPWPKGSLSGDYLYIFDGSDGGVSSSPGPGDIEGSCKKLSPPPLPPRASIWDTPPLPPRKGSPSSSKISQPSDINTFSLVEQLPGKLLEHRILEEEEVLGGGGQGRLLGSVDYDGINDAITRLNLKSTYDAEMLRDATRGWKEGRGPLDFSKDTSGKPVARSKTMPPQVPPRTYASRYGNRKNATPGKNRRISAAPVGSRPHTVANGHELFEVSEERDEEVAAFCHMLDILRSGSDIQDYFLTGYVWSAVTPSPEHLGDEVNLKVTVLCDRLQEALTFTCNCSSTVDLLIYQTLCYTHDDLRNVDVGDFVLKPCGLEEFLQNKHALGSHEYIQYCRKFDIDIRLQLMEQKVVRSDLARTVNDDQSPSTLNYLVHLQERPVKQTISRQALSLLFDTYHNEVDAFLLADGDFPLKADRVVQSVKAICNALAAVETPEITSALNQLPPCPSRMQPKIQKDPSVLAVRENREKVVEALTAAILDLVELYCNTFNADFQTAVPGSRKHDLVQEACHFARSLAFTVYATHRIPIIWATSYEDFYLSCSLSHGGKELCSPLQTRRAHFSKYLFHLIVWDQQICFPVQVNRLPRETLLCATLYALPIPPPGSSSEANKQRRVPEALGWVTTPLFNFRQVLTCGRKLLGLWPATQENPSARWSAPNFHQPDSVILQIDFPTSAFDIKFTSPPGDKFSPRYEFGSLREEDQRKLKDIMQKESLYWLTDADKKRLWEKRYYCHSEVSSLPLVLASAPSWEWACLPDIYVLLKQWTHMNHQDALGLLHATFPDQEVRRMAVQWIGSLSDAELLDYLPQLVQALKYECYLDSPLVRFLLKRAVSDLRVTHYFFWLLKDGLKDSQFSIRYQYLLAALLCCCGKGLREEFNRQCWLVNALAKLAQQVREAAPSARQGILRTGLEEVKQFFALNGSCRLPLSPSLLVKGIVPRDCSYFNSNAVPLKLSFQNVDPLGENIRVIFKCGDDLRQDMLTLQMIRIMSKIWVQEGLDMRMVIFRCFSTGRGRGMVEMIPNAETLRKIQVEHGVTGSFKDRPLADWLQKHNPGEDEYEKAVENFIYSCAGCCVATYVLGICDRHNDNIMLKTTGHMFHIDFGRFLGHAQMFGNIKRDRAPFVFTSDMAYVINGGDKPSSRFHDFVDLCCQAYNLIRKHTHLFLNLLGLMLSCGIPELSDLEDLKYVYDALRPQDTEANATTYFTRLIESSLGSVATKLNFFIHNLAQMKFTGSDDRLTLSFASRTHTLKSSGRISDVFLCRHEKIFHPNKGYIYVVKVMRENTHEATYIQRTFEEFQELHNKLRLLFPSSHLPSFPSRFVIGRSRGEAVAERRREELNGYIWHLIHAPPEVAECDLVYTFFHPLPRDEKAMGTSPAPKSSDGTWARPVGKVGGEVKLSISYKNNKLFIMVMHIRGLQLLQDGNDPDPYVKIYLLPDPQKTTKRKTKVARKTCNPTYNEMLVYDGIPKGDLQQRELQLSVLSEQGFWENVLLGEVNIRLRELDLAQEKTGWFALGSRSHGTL", "sequence of UniProt P51957 (whole entry, looked up)": "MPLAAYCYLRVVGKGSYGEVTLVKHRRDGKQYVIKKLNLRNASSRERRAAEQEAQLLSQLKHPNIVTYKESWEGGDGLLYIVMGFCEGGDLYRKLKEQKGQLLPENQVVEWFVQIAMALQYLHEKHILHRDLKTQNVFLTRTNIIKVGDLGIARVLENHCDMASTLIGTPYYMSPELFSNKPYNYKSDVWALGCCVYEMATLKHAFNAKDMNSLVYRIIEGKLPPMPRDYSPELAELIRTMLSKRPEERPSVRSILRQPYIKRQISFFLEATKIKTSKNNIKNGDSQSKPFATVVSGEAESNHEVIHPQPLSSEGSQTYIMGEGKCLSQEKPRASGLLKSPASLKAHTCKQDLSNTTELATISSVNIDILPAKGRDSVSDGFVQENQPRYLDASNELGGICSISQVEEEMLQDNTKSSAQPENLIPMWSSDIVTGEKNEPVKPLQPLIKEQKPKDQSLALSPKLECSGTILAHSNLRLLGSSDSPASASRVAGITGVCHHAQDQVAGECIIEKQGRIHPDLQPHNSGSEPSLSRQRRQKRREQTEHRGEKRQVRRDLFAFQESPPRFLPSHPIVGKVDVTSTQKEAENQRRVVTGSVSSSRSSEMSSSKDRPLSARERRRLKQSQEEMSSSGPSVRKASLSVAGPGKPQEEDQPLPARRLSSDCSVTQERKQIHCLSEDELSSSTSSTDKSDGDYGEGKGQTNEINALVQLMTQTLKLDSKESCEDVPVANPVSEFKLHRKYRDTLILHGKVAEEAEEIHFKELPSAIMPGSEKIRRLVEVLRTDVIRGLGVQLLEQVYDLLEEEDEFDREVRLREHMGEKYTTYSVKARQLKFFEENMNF", "sequence of UniProt Q13470 (whole entry, looked up)": "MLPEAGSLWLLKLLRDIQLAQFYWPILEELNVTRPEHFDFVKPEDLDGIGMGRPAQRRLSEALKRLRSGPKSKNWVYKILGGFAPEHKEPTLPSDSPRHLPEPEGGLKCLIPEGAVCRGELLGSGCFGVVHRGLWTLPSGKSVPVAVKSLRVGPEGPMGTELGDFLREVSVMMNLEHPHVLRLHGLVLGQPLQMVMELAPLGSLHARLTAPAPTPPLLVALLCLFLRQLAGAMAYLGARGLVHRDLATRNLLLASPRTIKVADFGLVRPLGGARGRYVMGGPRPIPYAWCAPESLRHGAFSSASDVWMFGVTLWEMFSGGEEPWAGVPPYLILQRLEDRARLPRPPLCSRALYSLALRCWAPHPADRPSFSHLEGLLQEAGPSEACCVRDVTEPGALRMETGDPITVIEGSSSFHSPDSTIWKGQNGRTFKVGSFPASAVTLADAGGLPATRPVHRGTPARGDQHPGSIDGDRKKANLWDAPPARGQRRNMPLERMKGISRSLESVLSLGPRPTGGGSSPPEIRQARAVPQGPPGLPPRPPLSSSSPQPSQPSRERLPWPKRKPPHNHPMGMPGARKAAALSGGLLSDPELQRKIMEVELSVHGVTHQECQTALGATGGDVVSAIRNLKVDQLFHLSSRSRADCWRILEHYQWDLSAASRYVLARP", "sequence of UniProt P54756 (whole entry, looked up)": "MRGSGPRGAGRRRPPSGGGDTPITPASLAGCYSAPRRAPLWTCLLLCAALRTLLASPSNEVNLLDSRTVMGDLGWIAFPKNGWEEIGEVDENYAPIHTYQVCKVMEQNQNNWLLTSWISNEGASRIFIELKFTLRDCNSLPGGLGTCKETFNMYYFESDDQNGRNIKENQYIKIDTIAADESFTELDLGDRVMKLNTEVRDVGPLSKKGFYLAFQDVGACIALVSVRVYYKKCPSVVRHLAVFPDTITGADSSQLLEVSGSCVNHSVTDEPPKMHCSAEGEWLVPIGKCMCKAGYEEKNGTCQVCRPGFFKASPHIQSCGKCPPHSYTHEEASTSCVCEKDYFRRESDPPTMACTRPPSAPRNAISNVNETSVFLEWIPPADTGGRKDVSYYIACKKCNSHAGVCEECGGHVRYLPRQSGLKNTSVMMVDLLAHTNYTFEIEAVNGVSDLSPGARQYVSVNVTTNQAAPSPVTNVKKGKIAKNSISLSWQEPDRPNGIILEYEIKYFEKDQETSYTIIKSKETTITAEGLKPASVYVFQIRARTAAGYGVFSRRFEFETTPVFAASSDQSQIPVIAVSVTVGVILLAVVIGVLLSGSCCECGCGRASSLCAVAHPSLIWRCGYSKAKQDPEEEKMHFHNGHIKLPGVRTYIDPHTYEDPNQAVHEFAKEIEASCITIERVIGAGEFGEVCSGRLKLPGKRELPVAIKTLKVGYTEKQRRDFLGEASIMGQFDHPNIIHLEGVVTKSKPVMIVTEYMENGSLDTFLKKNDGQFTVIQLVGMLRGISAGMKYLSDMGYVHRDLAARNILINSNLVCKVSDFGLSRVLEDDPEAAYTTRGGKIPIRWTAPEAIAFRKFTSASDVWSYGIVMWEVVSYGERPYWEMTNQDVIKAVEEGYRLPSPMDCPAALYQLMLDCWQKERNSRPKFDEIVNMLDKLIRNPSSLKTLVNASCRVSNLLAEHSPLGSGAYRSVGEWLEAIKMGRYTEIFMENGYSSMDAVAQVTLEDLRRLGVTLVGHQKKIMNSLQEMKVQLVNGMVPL", "sequence of UniProt P53778 (whole entry, looked up)": "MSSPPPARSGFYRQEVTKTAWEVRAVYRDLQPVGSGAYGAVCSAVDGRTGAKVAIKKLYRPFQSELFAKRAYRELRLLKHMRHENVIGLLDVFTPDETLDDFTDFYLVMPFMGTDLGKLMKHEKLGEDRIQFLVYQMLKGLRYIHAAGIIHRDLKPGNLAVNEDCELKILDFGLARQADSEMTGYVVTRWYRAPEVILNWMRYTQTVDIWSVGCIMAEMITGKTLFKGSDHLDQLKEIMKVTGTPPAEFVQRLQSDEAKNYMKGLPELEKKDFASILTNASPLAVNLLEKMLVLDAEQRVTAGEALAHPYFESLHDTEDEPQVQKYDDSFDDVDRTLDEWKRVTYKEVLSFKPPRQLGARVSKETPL"}
{"data": "Sample 1", "Compound": "COc1ccc(Cl)cc1NC(=O)Nc1cc(C)nc2ccccc12", "effect on": "enzyme activity", "mode": "inhibitor", "concentration": "0.5 µM", "relative to": "control"}
{"target": "Casein kinase I isoform alpha (CSNK1A1, Homo sapiens, UniProt P48729)", "remaining activity [%]": 101}
{"target": "Mitogen-activated protein kinase kinase kinase 10 (MAP3K10, Homo sapiens, UniProt Q02779)", "remaining activity [%]": 94.9}
{"target": "Protein kinase C delta type (PRKCD, Homo sapiens, UniProt Q05655)", "remaining activity [%]": 96.3}
{"target": "Ephrin type-A receptor 5 (EPHA5, Homo sapiens, UniProt P54756)", "remaining activity [%]": 123}
{"target": "Protein kinase C iota type (PRKCI, Homo sapiens, UniProt P41743)", "remaining activity [%]": 99.4}
{"target": "Dual specificity mitogen-activated protein kinase kinase 6 (MAP2K6, Homo sapiens, UniProt P52564)", "remaining activity [%]": 89.9}
{"target": "Tyrosine-protein kinase BTK (BTK, Homo sapiens, UniProt Q06187)", "remaining activity [%]": 102}
{"target": "Mitogen-activated protein kinase 12 (MAPK12, Homo sapiens, UniProt P53778)", "remaining activity [%]": 101}
{"target": "Serine/threonine-protein kinase PLK2 (PLK2, Homo sapiens, UniProt Q9NYY3)", "remaining activity [%]": 102}
{"target": "Serine/threonine-protein kinase Nek4 (NEK4, Homo sapiens, UniProt P51957)", "remaining activity [%]": 92}
{"data": "Sample 2", "host": "female C57BL/6 mouse", "sample": "plasma", "route": "oral", "dose": "10 mg/kg"}
{"SMILES": "CCOC(=O)CN(C(=O)c1ccn2ncc(-c3ccc(C(=O)NC)cc3)c2c1)c1ccc(Cl)cc1", "Cmax [nM]": 293}
{"SMILES": "COC(=O)c1cc(Cl)ccc1N(C)C(=O)c1ccn2ncc(-c3ccc(C(N)=O)cc3)c2c1", "Cmax [nM]": 32.7}
{"SMILES": "CNC(=O)c1ccc(-c2cnn3ccc(C(=O)N(CC(=O)O)c4ccc(Cl)cc4)cc23)cc1", "Cmax [nM]": 50}
{"SMILES": "CN(C(=O)c1ccn2ncc(-c3ccc(C(N)=O)cc3)c2c1)c1ccc(C#N)cn1", "Cmax [nM]": 659}
{"SMILES": "CNC(=O)c1ccc(-c2cnn3ccc(C(=O)N(C[C@H]4CCC(=O)O4)c4ccc(OC(F)(F)F)cc4)cc23)cc1", "Cmax [nM]": 31.7}
{"data": "Sample 3", "Structure (SMILES)": "Cc1cc(-n2nc(Cc3cc(F)cc(C(F)(F)F)c3)nc2C)ccc1C(N)=O", "effect on": "cell-free assay", "technique": "competition with immobilised ligand", "concentration": "1 µM"}
{"target": "Phosphatidylinositol 4-phosphate 3-kinase C2 domain-containing subunit beta (PIK3C2B, Homo sapiens, UniProt O00750)", "remaining binding [%]": 87}
{"target": "Non-receptor tyrosine-protein kinase TNK1 (TNK1, Homo sapiens, UniProt Q13470)", "remaining binding [%]": 69}
{"target": "Epidermal growth factor receptor (EGFR, Homo sapiens, UniProt P00533, del752-759)", "remaining binding [%]": 100}
{"target": "Epidermal growth factor receptor (EGFR, Homo sapiens, UniProt P00533, G719S)", "remaining binding [%]": 100}
{"target": "Activated CDC42 kinase 1 (TNK2, Homo sapiens, UniProt Q07912)", "remaining binding [%]": 100}
{"data": "Mixed results"}
{"SMILES": "CC(C)n1cnc(-c2ccc(F)cc2)c1-c1ncc(C(=O)Nc2ccc(N3CCN(C)CC3)cc2)[nH]1", "test system": "IPF patients", "conditions": "30 mg once daily, adverse event incidence", "quantity": "blood bilirubin increased", "value": "0%"}
{"note": "Excerpt of the above (sample 2):"}
{"SMILES": "CNC(=O)c1ccc(-c2cnn3ccc(C(=O)N(CC(=O)O)c4ccc(Cl)cc4)cc23)cc1", "Cmax [nM]": 50}
{"SMILES": "COC(=O)c1cc(Cl)ccc1N(C)C(=O)c1ccn2ncc(-c3ccc(C(N)=O)cc3)c2c1", "Cmax [nM]": 32.7}
